Measured values gathered from unrelated publications.
Protocols differ between the studies behind these lines. ± gives the spread as reported.

By UniProt entry, the sequences of proteins in these tests, tags left out. Residues count along the entry.
UniProt P41148, 22-804 limits assumed: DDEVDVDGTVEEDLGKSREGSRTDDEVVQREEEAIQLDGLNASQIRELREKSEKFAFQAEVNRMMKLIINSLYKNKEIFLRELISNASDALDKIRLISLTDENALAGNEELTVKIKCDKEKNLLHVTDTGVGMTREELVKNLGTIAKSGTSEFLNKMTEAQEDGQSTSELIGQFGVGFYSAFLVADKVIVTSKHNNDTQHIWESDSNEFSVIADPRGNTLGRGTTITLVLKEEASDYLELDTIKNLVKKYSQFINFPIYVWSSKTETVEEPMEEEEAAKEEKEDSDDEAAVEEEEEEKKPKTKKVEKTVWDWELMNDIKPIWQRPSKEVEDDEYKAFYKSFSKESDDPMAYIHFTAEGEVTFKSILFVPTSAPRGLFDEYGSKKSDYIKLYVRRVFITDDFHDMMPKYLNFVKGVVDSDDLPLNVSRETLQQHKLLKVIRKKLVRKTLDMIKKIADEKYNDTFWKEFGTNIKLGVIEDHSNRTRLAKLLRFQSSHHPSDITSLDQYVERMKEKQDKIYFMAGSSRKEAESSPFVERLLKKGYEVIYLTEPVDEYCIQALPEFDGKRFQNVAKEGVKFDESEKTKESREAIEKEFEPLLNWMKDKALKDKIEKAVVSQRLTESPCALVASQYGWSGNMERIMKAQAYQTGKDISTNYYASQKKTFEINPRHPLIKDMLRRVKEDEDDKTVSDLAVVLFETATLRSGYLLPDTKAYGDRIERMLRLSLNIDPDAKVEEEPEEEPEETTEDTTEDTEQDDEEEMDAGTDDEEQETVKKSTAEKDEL
UniProt Q13002, 32-908 limits assumed: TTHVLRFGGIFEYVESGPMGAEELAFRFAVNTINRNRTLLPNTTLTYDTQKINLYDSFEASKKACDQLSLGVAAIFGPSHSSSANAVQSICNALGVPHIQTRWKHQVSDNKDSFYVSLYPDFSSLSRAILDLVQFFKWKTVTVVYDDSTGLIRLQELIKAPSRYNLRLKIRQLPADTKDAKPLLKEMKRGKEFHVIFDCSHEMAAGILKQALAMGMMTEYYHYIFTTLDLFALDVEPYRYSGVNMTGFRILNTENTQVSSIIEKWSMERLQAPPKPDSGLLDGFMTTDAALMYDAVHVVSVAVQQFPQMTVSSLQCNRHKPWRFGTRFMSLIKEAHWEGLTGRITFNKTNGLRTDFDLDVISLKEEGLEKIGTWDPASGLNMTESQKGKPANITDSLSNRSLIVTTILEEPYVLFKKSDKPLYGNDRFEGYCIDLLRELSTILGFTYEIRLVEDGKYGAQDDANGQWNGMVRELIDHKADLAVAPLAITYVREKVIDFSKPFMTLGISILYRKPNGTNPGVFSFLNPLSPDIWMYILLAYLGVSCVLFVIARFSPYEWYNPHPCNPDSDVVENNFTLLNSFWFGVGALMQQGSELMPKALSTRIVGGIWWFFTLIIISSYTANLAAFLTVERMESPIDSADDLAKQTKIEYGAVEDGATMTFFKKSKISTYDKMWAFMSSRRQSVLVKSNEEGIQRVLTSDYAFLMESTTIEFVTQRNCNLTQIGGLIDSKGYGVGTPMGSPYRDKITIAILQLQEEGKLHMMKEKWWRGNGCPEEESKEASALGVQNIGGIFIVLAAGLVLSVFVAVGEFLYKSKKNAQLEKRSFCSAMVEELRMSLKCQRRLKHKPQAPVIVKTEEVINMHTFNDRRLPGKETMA
UniProt Q16099, 21-956 limits assumed: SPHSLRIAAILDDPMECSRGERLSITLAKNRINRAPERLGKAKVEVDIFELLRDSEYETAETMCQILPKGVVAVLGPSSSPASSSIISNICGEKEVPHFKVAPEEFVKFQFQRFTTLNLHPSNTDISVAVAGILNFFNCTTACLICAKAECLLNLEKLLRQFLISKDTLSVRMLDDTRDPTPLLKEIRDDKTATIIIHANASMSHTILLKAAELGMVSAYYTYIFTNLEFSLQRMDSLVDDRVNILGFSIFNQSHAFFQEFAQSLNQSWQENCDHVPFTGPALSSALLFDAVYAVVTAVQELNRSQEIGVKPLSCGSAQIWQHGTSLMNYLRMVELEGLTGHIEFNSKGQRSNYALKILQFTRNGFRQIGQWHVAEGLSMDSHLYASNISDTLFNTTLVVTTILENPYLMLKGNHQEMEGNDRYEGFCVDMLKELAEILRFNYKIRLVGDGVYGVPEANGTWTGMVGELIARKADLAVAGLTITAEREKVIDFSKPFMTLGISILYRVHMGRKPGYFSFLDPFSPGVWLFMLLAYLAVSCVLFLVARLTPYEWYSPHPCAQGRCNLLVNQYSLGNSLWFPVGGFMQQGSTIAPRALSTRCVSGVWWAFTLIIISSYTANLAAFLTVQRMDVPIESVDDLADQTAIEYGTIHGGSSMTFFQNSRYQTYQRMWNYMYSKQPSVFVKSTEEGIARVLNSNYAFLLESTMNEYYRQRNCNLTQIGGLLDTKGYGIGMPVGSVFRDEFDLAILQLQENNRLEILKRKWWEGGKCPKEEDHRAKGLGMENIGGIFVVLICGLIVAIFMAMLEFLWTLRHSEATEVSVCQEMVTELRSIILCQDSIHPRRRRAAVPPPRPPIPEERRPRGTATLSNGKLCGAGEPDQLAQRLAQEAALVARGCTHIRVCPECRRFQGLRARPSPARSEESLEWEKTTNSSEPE
UniProt Q00960, whole entry, looked up: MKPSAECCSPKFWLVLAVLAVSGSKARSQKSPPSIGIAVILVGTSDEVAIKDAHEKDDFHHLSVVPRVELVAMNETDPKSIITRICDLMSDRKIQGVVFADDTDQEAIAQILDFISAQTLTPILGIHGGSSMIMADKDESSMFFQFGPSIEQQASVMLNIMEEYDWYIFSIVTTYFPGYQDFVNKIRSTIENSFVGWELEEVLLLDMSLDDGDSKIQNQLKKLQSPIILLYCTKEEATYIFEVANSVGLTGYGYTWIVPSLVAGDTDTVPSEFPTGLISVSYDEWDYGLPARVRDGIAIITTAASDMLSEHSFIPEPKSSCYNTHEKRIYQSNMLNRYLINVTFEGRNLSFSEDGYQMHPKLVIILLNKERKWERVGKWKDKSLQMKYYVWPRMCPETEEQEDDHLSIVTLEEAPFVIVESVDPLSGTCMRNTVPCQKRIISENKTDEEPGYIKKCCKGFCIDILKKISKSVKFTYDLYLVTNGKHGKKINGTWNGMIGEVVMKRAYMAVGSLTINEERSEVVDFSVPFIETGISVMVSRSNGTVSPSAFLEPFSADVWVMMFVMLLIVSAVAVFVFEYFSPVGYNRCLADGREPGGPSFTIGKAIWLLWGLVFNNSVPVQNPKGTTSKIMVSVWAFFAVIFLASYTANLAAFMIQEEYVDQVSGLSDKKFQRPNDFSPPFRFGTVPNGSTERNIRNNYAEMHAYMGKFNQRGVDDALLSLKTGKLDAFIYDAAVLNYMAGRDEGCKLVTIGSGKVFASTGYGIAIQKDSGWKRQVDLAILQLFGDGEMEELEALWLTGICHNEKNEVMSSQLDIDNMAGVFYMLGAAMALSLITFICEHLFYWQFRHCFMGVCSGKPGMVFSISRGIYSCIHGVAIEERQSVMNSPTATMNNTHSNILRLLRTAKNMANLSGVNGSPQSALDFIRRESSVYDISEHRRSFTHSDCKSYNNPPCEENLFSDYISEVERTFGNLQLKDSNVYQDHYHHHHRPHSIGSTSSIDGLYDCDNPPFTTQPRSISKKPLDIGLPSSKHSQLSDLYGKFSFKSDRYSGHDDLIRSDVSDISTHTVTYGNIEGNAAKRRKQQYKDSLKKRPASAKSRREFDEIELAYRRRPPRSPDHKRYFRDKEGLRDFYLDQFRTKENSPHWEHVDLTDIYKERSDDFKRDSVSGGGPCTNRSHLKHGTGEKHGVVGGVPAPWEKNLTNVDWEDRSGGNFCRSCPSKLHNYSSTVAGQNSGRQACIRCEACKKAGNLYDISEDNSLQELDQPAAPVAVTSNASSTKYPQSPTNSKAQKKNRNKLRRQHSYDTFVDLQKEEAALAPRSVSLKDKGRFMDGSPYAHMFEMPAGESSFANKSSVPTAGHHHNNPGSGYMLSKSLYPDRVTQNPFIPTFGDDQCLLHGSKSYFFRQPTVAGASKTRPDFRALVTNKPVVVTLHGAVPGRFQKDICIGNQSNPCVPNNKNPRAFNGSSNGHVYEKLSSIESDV
UniProt Q04771, whole entry R206H, looked up: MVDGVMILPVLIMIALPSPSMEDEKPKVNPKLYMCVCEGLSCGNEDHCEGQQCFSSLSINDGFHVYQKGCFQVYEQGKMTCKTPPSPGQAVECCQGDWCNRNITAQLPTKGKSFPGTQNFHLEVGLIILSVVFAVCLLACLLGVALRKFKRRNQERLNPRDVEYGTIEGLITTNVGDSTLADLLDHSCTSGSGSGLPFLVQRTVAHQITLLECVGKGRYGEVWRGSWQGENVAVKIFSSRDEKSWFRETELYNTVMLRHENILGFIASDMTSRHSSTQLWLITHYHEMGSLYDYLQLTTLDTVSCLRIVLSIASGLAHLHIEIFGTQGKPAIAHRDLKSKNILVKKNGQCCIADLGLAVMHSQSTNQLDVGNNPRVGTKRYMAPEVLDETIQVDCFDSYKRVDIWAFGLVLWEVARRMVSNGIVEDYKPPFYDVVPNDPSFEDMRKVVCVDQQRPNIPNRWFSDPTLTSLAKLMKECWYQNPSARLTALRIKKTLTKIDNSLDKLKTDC
UniProt P40763, 2-770 limits assumed: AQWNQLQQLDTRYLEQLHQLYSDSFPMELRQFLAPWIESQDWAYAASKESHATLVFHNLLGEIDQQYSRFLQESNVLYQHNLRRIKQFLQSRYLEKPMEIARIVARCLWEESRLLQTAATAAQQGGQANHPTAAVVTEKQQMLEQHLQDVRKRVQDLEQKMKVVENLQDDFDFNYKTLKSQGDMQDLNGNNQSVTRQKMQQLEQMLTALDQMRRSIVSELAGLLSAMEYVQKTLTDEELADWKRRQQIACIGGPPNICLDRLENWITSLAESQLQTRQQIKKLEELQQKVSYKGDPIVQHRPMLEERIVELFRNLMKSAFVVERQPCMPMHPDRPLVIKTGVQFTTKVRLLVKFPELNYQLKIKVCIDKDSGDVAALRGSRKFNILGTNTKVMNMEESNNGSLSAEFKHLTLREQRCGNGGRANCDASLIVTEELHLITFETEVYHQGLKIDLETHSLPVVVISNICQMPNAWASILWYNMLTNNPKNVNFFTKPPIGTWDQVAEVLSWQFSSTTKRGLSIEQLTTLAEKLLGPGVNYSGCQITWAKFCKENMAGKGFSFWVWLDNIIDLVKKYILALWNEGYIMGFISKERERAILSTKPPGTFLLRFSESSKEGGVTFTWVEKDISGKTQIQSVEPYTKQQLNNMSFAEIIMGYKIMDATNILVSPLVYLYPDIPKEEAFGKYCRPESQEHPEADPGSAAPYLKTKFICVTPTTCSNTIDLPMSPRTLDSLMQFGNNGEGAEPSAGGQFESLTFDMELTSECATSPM
UniProt P06276, whole entry, looked up: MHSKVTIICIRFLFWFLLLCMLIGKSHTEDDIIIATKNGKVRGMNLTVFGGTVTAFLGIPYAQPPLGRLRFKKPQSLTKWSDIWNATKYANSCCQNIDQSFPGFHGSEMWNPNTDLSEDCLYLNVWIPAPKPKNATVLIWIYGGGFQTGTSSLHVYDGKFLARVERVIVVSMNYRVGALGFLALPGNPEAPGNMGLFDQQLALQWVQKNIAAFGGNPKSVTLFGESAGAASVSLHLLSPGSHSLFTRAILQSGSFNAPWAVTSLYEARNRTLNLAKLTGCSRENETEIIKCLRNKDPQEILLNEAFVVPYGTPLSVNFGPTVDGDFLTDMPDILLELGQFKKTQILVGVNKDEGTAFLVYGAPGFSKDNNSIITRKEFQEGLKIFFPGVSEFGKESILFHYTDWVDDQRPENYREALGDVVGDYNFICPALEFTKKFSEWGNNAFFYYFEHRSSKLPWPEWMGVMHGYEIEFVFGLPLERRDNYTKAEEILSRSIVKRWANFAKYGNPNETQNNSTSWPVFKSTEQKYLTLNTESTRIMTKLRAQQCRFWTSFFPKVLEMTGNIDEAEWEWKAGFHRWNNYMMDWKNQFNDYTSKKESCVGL
UniProt P28074, whole entry, looked up: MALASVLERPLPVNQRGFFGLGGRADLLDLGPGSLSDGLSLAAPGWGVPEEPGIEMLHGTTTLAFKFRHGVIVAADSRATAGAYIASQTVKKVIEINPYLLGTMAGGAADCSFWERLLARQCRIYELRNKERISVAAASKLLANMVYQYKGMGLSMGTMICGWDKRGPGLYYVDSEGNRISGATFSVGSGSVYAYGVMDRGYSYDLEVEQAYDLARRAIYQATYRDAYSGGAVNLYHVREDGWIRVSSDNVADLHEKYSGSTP

Structure (SMILES)	target	test	system	conditions	scale	endpoint	result
COC(=O)c1c(O)cc(O)c(Cl)c1CCc1cc(N)ccc1Cc1ccccc1	Endoplasmin (HSP90B1, Canis lupus familiaris, UniProt P41148)	fluorescence polarization		added: FITC-geldanamycin tracer	reference: Grp94 over Hsp90α	selectivity ratio	4 fold
CCN(CC)C(=O)Oc1ccc(C(=O)Nc2cccc3cc[nH]c23)cc1	GRIK2/GRIK4 (Homo sapiens, UniProt Q13002+Q16099)	modulator, two-electrode voltage clamp	Xenopus oocytes	20 µM, added: 100 µM AMPA	reference: agonist alone	current response	101 ± 1.9%
COc1ccc(OC[C@H]2c3cccn3CC(=O)N2Cc2cccc(F)c2)cc1	Glutamate receptor ionotropic, NMDA 2B, with GluN1 (Grin2b, Rattus norvegicus, UniProt Q00960)	ion current, whole-cell patch clamp	HEK293T cells, transfected	10 µM, added: glutamate for 10 ms	reference: baseline	charge transfer	1.4 ± 0.3 fold
CC#C/C(=N\OC[C@H]1COCCN1)c1ccc2ncnc(Nc3ccc(OCc4cccc(F)c4)c(Cl)c3)c2c1	Citron Rho-interacting kinase (CIT, Homo sapiens, UniProt O14578)	kinase activity		10 µM		inhibition	-3.7%
CCN1CCN(Cc2ccc(NC(=O)c3ccc(C)c(/C=C/c4cnc5[nH]ccc5c4OC)c3)cc2C(F)(F)F)CC1	Activin receptor type-1 (ACVR1, Homo sapiens, UniProt Q04771, R206H)	inhibitor, cell-based kinome screen		5 µM	reference: no inhibitor	log2 fold change	-0.37
Cc1ccc(S(=O)(=O)N(C)CC(=O)N(Cc2ccc(C3CCCCC3)cc2)c2ccc(C(=O)O)c(O)c2)cc1	Signal transducer and activator of transcription 3 (STAT3, Homo sapiens, UniProt P40763)	co-immunoprecipitation	PANC-1	30, 50, 100 µM, 3 h		EGFR co-immunoprecipitated	decreased
Cc1ccc(S(=O)(=O)Nc2ccccc2N2CCCCC2)s1	Cholinesterase (BCHE, Homo sapiens, UniProt P06276)	enzyme activity				efficacy	-52 ± 7.8%
Cc1ccc(-c2nsc(=O)o2)s1	Proteasome Macropain subunit MB1 (PSMB5, Homo sapiens, UniProt P28074)	inactivation	human PA28-activated proteasome			kobs/[I]	148 M⁻¹ s⁻¹

Some of these lines once more:
Structure (SMILES)	target	test	system	conditions	scale	endpoint	result
COC(=O)c1c(O)cc(O)c(Cl)c1CCc1cc(N)ccc1Cc1ccccc1	Endoplasmin (HSP90B1, Canis lupus familiaris, UniProt P41148)	fluorescence polarization		added: FITC-geldanamycin tracer	reference: Grp94 over Hsp90α	selectivity ratio	4 fold
